{"data": "Assay results pooled from the literature", "note": "Each line is one published result; not all experiments were run side by side. Several values in a cell are separate wells, animals, samples, runs or records."}
{"Substance": "maraviroc", "target or system": "HIV-1 ADA", "assay": "viral replication, qPCR", "test system": "HIV-infected mice, brain", "conditions": "ip, 120 mg/kg twice daily, 3 weeks post-infection, normalized to CD45+ cells", "scale": "relative to: untreated HIV-infected mice", "endpoint": "HIV-1 LTR decrease", "result": "52 fold"}
{"Substance": "GLFHWVYLV", "target or system": "Jurkat T cells expressing 1G4 TCR", "assay": "NFAT-eGFP reporter, fluorescence microscopy", "test system": "peptide", "conditions": "concentration not given, HLA-A*02:01 NY-ESO system", "endpoint": "reporter activation", "result": "0.019%"}
{"Substance": "milbemycin oxime", "target or system": "Saccharomyces cerevisiae", "assay": "cell growth", "test system": "Pdr5 deleted, Cdr1 overexpressed", "conditions": "2^-7.966 µg/mL, with: fluconazole 10 µg/mL", "endpoint": "OD600", "result": "1.02 and 1.01"}
{"Substance": "colistin", "target or system": "Escherichia coli", "assay": "tetracycline activity", "test system": "tetracycline-resistant", "conditions": "0.03125 µM, with: tetracycline", "scale": "relative to: tetracycline alone", "endpoint": "fold enhancement", "result": "4 fold"}
{"Substance": "CTCATAGACT", "target or system": "Salmonella enterica Typhimurium", "assay": "broth microdilution", "test system": "peptide, SL1344", "conditions": "range over 0.3-10 µM, 24 h, 37 °C, Mueller-Hinton broth", "endpoint": "MIC", "result": "> 10 µM"}
{"Substance": "ALMHWITQV", "target or system": "Jurkat T cells expressing 1G4 TCR", "assay": "NFAT-eGFP reporter, flow cytometry", "test system": "peptide", "conditions": "concentration not given, HLA-A*02:01 NY-ESO system", "endpoint": "reporter activation", "result": "2.07%"}
{"Substance": "TASPAKETSF", "target or system": "human MAGI1-2/6 PDZ construct (MBP fusion)", "assay": "automated holdup", "test system": "peptide, purified PDZ protein", "conditions": "concentration not given, unit not given", "scale": "relative to: biotin control resin, higher = stronger binding", "endpoint": "binding intensity", "result": -0.0731}
{"Substance": "Polymyxin B", "target or system": "Staphylococcus aureus", "assay": "DiSC3(5) fluorescence", "conditions": "concentration not given, 60 min", "scale": "higher = more depolarisation", "endpoint": "membrane depolarisation", "result": "569 a.u. and 708 a.u. and 509 a.u."}
{"Substance": "colistin", "target or system": "Pseudomonas aeruginosa", "test system": "clinical isolate RKI 46/14", "endpoint": "MIC", "result": "≤ 1 µg/mL"}
{"Substance": "CTCATACTCT", "target or system": "Salmonella enterica Typhimurium", "assay": "RNA-seq, item: SL1344_3670 mRNA", "test system": "peptide, SL1344", "conditions": "5 µM, 15 min", "scale": "relative to: water control", "endpoint": "log2 fold change", "result": -2.25}
{"Substance": "KPGKGSETVV", "target or system": "human MAGI1-2/6 PDZ construct (MBP fusion)", "assay": "automated holdup", "test system": "peptide, purified PDZ protein", "conditions": "concentration not given, unit not given", "scale": "relative to: biotin control resin, higher = stronger binding", "endpoint": "binding intensity", "result": 0.482}
{"Substance": "CAGATACTCT", "target or system": "Salmonella enterica Typhimurium", "assay": "broth microdilution", "test system": "peptide, SL1344", "conditions": "range over 0.3-10 µM, 24 h, 37 °C, Mueller-Hinton broth", "endpoint": "MIC", "result": "> 10 µM"}
{"Substance": "LVHYTHCGSLGV", "target or system": "Epstein-Barr virus", "assay": "BamHI-W qPCR", "test system": "peptide, B-NDG humanized mouse, EBV-infected, peripheral blood", "conditions": "20 mg/kg, day 28", "endpoint": "EBV DNA copy number", "result": "0 copies"}
{"note": "For quick reference, copied from above:"}
{"Substance": "CTCATAGACT", "target or system": "Salmonella enterica Typhimurium", "assay": "broth microdilution", "test system": "peptide, SL1344", "conditions": "range over 0.3-10 µM, 24 h, 37 °C, Mueller-Hinton broth", "endpoint": "MIC", "result": "> 10 µM"}
{"Substance": "colistin", "target or system": "Pseudomonas aeruginosa", "test system": "clinical isolate RKI 46/14", "endpoint": "MIC", "result": "≤ 1 µg/mL"}
